Measured values gathered from unrelated publications.
Every numbered part comes from another study and shows a few of its results, in no order. Changes are numbered by the printed parent chain.

Study 1 — target: UBE2J1 UBC core domain (UniProt Q9Y385); method: yeast two-hybrid; medium: yeast; notes: mostly zero background; relative to: not given; direction: higher = stronger interaction
B1: RNF183 RING domain (UniProt Q96D59); chain EQQGRELEAECPVCWNPFNNTFHTPKMLDCCHSFCVECLAHLSLVTPARRRLLCPLCRQPTVLASGQP
B2: DEF8 RING domain (UniProt Q6ZN54); chain AGRLGCSLTEIHTLFAKHIKLDCERCQAKGFVCELCREGDVLFPFDSHTSVCADCSAVFHRDCYYDNSTTCPKCARLSLRK
B3: TRIM22 RING domain (UniProt Q8IYM9); chain VKVDIEKEVTCPICLELLTEPLSLDCGHSFCQACITAKIKESVIISRGESSCPVCQTRFQPGNLRP
Residues (chain): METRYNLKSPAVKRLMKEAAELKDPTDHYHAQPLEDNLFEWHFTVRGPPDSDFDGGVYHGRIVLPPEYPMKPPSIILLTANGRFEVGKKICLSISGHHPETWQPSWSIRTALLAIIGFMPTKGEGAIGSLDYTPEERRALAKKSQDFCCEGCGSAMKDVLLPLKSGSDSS
| Molecule | lacZ reporter activity |
| --- | --- |
| RYRQMEERITCPICIDSHIRLVFQCGHGACAPCGSALSACPICRQPIRDRIQIF (MIB2 RING domain (UniProt Q96AX9)) | 0 |
| LGTKLEAKYLCSACRNVLRRPFQAQCGHRYCSFCLASILSSGPQNCAACVHEGIYEEGIS (TRAF2 RING domain (UniProt Q12933)) | 0 |
| B1 (RNF183 RING domain) | 0 |
| B2 (DEF8 RING domain) | 0 |
| B3 (TRIM22 RING domain) | 0 |
| QVQSRTKIEECVVCSDKKAAVLFQPCGHMCACENCANLMKKCVQCRAVVERRVPFI (MIB1 RING domain (UniProt Q86YT6)) | 0 |

Study 2 — method: competition protein-binding microarray; form: double-stranded DNA, one strand shown; medium: in vitro; concentration: 2 µM; added: Pho4 competitor, 0.05 µM; direction: higher = stronger binding
Target: Centromere-binding protein 1, full length, His-tagged (CBF1, Saccharomyces cerevisiae, UniProt P17106, residues 1-351)
UniProt P17106, sequence (whole entry, looked up): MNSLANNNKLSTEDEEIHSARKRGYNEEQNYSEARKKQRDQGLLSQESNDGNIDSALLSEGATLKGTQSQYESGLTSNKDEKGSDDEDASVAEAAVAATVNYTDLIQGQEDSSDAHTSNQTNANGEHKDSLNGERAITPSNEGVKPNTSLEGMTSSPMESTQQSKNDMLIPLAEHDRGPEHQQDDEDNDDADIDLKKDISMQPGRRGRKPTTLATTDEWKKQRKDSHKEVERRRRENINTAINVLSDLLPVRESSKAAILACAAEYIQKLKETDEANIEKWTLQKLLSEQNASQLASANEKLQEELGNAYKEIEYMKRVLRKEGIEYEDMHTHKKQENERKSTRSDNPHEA
Notes: whole 60-bp probe, lowest competitor level
| Strand | fluorescence intensity |
| --- | --- |
| CGTCCTAGTGATTGTCACATCACTTCCATGAGGAAGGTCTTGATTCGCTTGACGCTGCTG | 88.6 a.u. |
| CTAACGAAGGTTTGTGCTGTGGGTGACAAGCCAAGTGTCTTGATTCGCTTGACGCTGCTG | 71.3 a.u. |
| CTAACGAAGGTTTGGGGAGTGGGTGACAAGCCAAGTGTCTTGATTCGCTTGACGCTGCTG | 59.9 a.u. |
| AAATTACTAAGTTGGGCTGTGGGTGACGCCGTATGAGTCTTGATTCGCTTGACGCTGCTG | 60.3 a.u. |
| CGTCCTAGTGATTTTCACGTGAGTTCCATGAGGAAGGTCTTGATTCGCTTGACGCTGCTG | 994 a.u. |
| TCCAGGGAAACAAGCCAGGCGCAGGCACCTTAATAAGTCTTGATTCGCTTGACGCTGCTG | 61.5 a.u. |
| ACCTAGAGAAACCAAAACGTGATGGCCTGCTGGGATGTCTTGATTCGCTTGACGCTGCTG | 276 a.u. |
| CGTCCTAGTGATTTTCACGTGCGTTCCATGAGGAAGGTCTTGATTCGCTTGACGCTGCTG | 871 a.u. |
| TTGGGGTTTATATCGCACGCTTATATTTGGGCCAGCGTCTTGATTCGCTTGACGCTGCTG | 98.3 a.u. |
| GTTAAGCATAAAAAGCACGTGCTTTAGATGTTTTCAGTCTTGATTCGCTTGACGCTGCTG | 2570 a.u. |
| GTCTTGTCTCATTGAAGTGTGGGTGTCCCCACTTCAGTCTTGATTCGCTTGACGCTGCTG | 71.7 a.u. |
| GTCTTGTCTCATTGCCGGGTGGGTGTCCCCACTTCAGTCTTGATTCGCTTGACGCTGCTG | 78.8 a.u. |
| AAAGCGGTAATTTTTCACGTGTCTTCACATATCTATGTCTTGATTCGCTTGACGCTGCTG | 1300 a.u. |
| GTCTTGTCTCATTGATTAGTGGGTGTCCCCACTTCAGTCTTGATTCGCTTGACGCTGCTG | 75.3 a.u. |
| AAAGCGGTAATTTGCTTCGTGGGTGCAGATATCTATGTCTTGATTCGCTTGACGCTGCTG | 78.1 a.u. |
| CTTCTGTAAATTTAACACGTGTTTTGACGCGCCCCGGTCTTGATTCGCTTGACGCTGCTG | 2570 a.u. |
| TGCGCAACAACTTGGAGAGTGGGTGTATGTCTAGAAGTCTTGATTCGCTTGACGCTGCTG | 64.1 a.u. |
| ATTTCGATGTACATCCTCGTGATGGTAAATATGGCCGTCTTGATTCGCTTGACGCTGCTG | 456 a.u. |
| AAATTACTAAGTTGATCCGTGGGTGACGCCGTATGAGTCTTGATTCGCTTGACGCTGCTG | 62.9 a.u. |

Study 3 — method: RNA Bind-n-Seq; form: RNA; medium: in vitro; concentration: 365 nM; relative to: no-protein control; direction: higher = stronger binding
Target: RNA binding protein fox-1 homolog 2, RRM domain, GST-SBP tag (RBFOX2, Homo sapiens, UniProt O43251-10, residues 100-194)
Notes: natural RNA segment, single round, ends assumed
| Strand | RBNS enrichment (R) |
| --- | --- |
| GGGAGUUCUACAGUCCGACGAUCCCAUUUUGUUUUAUACAAAAAUGGGAAAAAAAAAAAAGAAAUUAUAUAAAGUUCCUAGAGUCGGUGUCUUAUUAGAGGAUUUAAAUACUGGGACUGGAAGUAUCUAACACUGGAAUUCUCGGGUGCCAA | 0.903 |
| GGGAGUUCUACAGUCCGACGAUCUACAUUGUUAAAGUAACUUGGCUUCCCAGGACUGGAAUUAUCAUGGAGCAGUUAGAAUUUUGAGAGUAAUUACAACAGGAUCACAUUCUGAAAGAGUCACAUUUUGUCAAUGGAAUUCUCGGGUGCCAA | 0.637 |
| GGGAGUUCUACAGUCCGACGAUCCCUGCGGGCUUUUCCCCGGUCCCUUGAGACCUCAGCCAUGAGGAGUUGCUGUUUGUUUGACAAAGAAACCCAAGUGGGGGCAGAGGGCAGAGGCUGGAGGCAGGGCCUUGUGGAAUUCUCGGGUGCCAA | 0.48 |
| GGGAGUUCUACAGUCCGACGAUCCCUGCUCAAAGUCAAAUACAAACCCAAGAGAAGAAAUGUCUUCUCAAGACUUUGUGUCUAAUGUUUUUCAAACUUCCCAUUAGAUCACUGCUUCAAUACAAAACCAGCAGUGGAAUUCUCGGGUGCCAA | 0.408 |
| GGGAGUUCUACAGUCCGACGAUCUCAAAAAACCUUUACAGUUAGCAGGGAUGUUCCUUACCAAGGAUUUUUAGCCCCAAAUCUCUCAUAUUCGCUAGUGUUUAAAAGGCUAAGAAUAGUGGGGCCCAGCCGAUUGGAAUUCUCGGGUGCCAA | 0.498 |
| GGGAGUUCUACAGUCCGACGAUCGAAGGAAGGGGAUAGGCAGCUUUGACAGGUGCUGCUUUCAAUUCCUCUGCAACUCCUCCCCCUUUUAUUUCCCCAAUUUAAACAAAGAUUCUGCCAACUGUGGAAACUUCUGGAAUUCUCGGGUGCCAA | 0.811 |
| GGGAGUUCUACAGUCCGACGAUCAGGGUCUGCAGGUUCCAUGGGUGACAGCCUGAGAUCUGUCCCUUCAACGGGCUGGGCUGGGUAUGUGCCUACCGAUGACAAUGUGUAAAUAAAUGCGUGUUCACACCCACUGGAAUUCUCGGGUGCCAA | 0.752 |
| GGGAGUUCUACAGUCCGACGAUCAUGAAUGCACUGCAUAAAAACUUUGUAGCUUCAUUAUUGUAAAACAUAUUCAAGAUCCUACAGUAAGAGUGAAACAUUCACAAAGAUUUGCGUUAAUGAAGACUACACAGUGGAAUUCUCGGGUGCCAA | 0.519 |

Study 4 — method: DHFR PCA, deep sequencing; medium: yeast; added: (+)-ABA 58 µM; relative to: wild-type fitted maximum; direction: higher = stronger binding
Target: ABI1, truncated, D143A, DHFR fusion (Arabidopsis thaliana)
Notes: methotrexate growth selection, single substitutions
Parent: PYL1, truncated, DHFR fusion (Arabidopsis thaliana); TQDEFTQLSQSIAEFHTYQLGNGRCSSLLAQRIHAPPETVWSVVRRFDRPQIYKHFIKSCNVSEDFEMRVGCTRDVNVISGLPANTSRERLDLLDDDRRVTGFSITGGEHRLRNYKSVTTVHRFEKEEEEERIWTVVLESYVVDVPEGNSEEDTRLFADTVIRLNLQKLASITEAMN
| Variant | relative binding score |
| --- | --- |
| L8S | 32.4% |
| L94A | 13.9% |
| D48I | -12% |
| R163N | 63% |
| K54T | 0.356% |
| A175V | 78.3% |
| P146L | 27.1% |
| E128N | 99.3% |
| P36W | 50.4% |
| G108M | -0.402% |
| R49L | 64.8% |
| G81Q | 7.5% |
